Assay results collected from several papers.
Every numbered part comes from another study and shows a few of its results, in no order.

Set 1
Target: RING finger protein unkempt homolog, zinc fingers 1-6, GST-SBP tag (UNK, Homo sapiens, UniProt Q9C0B0, residues 30-357)
Method: RNA Bind-n-Seq
Molecule type: RNA
Medium: in vitro
Concentration: not given
Notes: RNA with constant flanks, human and mouse sites, ends assumed
Relative to: input RNA pool
Direction: higher = stronger binding
Shared flanks, not repeated: GGGAGUUCUACAGUCCGACGAUC … CAACAGAGGAUUGAGCAUCA
Residues (chain): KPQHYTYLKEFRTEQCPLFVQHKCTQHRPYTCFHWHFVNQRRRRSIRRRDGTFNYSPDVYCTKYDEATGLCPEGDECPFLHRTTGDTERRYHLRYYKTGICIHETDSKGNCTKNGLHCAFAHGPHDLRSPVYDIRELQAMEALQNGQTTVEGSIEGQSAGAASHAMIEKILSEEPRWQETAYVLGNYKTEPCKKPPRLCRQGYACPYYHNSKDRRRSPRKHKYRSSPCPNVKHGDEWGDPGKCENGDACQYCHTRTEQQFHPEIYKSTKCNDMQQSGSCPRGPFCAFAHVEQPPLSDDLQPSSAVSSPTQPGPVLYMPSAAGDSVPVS
Sequence | bound/input enrichment
UGGGACCCCACUUGCAUGAAGAUGGACGAGGUUCUGUACAGCAUCGCCGAAAAGGUUAAAAAUUUUGCAGUUAUUUAUCUUGUGGAUAUUACAGAAGUGCCUGACUUCAACAAGAUGUAC | 0.243 ratio
AGCAAGAUCAUGUGCAUAUCAUCCCAUUGUAAAGCGACUUCAAAAAUAUGGGAACACAGUUAGUUAUUUUUACACAGUUCUUUUUGUUUUUGUGUGUGUGUGCUGUCGCUUGUCGACAAC | 0.846 ratio
AAAAACCUGGAGAAAAUUAGCAGACAGUCUAGUGUGCUCAUGGAUAACAUGAAACACCUAUUAGAGCUAAAUAAAUUAAUAAUGAAAUCACAGCAGGAAUCUUGGGAUUUAGAGGAAAAA | 8.52 ratio
UUUAUAGAAAUCACUGAUGACCAGUUUGACUUUCAUACAUACUGUAUGAGGAAGAUUACCCUUAGAUCAUAUGUGGACUUAUUAAAACUAGAAGAUGUACUUCGACAGCAUCCAUUUUAC | 1.63 ratio
UCCAUGUCAGAAGACAAUCGCCCUUUAACUGGACUUGCAGCUGCAAUUGCCGGAGCAAAACUUAGGAAAGUGUCACGGAUGGAGGAUACCUCUUUCCCAAGUGGAGGGAAUGCUAUUGGU | 0.24 ratio
AAGCAGGUGAACAAUUUUCUGACCUCAUCCUGGCGGGAUGAUGACUUUGUGCCACGCUACUGUGAGCACUUUAAUAUUCUGCAGAACUCAAGCUCUGAACUGUUUGGGCCUCGGGCAGCC | 0.202 ratio
AUGAACUUGAGGUUCCUUGAAUUUGCGAGGUGUGGAAAGACUACUUGACUGUCUGUCCAGCUUAGCUGUUAUGUUUUUUGGGGGGGAGGGGUGAUGUGUUAAGAGUGAGUGGUACACUGG | 0.599 ratio
AGAGCAGAGGCCAUGAAUAUUAAAAUAGAACCCGAGGAGACAACGGAAGCCAGAACUCAUAAUCUGAGACGUCGAAUGGGUUGUCCAACUCCAAAAUGUGAAAAUGAGAAAGAAAUGAAG | 0.871 ratio
CAACAAGCUGGCCAUGAUGAAGGUGUUCUGGAUCGUCUUGUGGACAGGAGGGAACGGCCACUAGAAGGUGGCCGAACUAAUUCCAAUAACAACAACAGCAAUCCAUGUUCAGAACAAGAU | 0.0766 ratio
UUGAGCAUACAUAUACAAUGUGUUUCAAAUGCUGCUUGUAAAAUUAAACCAUCAUCUAGAAUAGAGUUAAUUUAUUAUAAUCAAGCUACAAAUAGGUUUUCUUAAACCAGAGAUGCACUG | 4.41 ratio
AAGGAUUUGGAAUCUAUUGAUACUGAAUUUUACAACUCUCUAAUCUGGAUAAGAGAUAACAAUAUUGAAGAAUGUGGCUUAGAAAUGUACUUUUCUGUAGACAUGGAGAUUCUGGGAAAA | 0.249 ratio

Set 2
Target: RNA binding protein fox-1 homolog 2, RRM domain, GST-SBP tag (RBFOX2, Homo sapiens, UniProt O43251-10, residues 100-194)
Method: RNA Bind-n-Seq
Molecule type: RNA
Medium: in vitro
Concentration: 365 nM
Notes: natural RNA segment, single round, ends assumed
Relative to: no-protein control
Direction: higher = stronger binding
Shared flanks, not repeated: GGGAGUUCUACAGUCCGACGAUC … UGGAAUUCUCGGGUGCCAA
Construct (chain): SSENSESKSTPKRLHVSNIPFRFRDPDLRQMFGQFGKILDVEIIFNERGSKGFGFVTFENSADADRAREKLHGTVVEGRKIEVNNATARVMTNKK
Sequence | RBNS enrichment (R)
CCCGUGUUUCCUAAGGACUCCGCAGACAAGGCUUUCACCUGCGUGUUCAUCUGUGGGUCAUCGAGGCUGGAGCAGUUCCUGCUGAGUCAGGCUCUGUCCUAGAGUGGGCA | 0.227
GGUUACAGAGUUCAGCGCUUGGUUCCCAGGGUUUAUAUACGAAACAGCGGAUUGCUGUGGGCUGGUUCAUAAAGUGAAACUAAUGAAUCUAUCUCUUUGUCACUUGCUGG | 0.325
CAAGAUGCCCUGUGCAGCUGCCCGAGGGUCUCCGCCCACCCCGGCCGGACUUUGAUCCCCCCGAAGUCUUCACAGGCACUGCAUCGGGUUGUCUGGCGCCCUUUUCCUCC | 0.405
UAUUACCAAGCGAGUGUUUGUAACCAUGUAGUUUUGGAACCCACUGCAAAAUUUUCUACUGGCCAAGUUCAAGUGAGUAAGCCGCGUCCCCCAACUACAGCUGGAGACGG | 0.251
GUUUUUAGUUGCUAUCUGUAGCGUGACAACGGGCAGCUAUAUUUACAGGCUUUCAUUCUAUCUUAUUAACAUAGAGUCUUAUGGAACAAUUUGCCAUGAGUAUAGUUGAA | 0.506
AUACAGCUAAACCUUUCUUAUGUAUAAAGUAUGCCUAUCAUAUACAGGGAGAGGUGGGUAAUAAACUUCCUGUAAUGACAGUGUUUGGCAUUUCUUUAUGGAUGGAAUUG | 1.2
ACCGAGCAGCCACAAGCUGGAAACCACCGGCCAUGAACUUGUCCCAGGAACCAAACACCUCCCCUGCACCUGUUCAUUCCUCCCAGUGGAGACUUCAGAUUGGAAUACCU | 0.374
CUAGAAUGCUCUGUAUACUUUAUAUUAAAAAAUGCUUUGCAUUUCUUCCAGUGCAAUGAAAUUCAUAUGGUGUCCCACCUUAUUUAAUGAUGGUACAAUUUAAAAUCUUA | 0.549
UGUAUGGCAUUAAUUUCCUGCCACUAGAGAUAUUUUGAAGAUUGCUUGAAUGCUGGUGUCUGUUAGAAUGCUUCUGACUACAGAUGUAAUUAAAGGCUUUUCUUACUAUG | 0.853
UCAGAGAGUCUAUCCUGGUCCCUCUAGUUACGGCAGUCUGUGUCAAGGUGGUCUCUUUUGCUUGCUUCUUUUAAAUGUUUUCCUUUGUAUUUGAUGACAAAUGUUUGUAU | 2.01
UUUACGUGGUAACUAGUCUUAUAACAUGUAUGUAUCUUUUUUUUGUUGUUCAUCUAAAGCUUUUUAAUCCAAAUAAAUACAGAGUUUGCAAAGUGAUUUGGAUUAACCAG | 2.14
AACUGUAAUAGCUAUUGGUCUUCAAGUGGGUUUAGAUUUGGUGACAUCAGUUUGAUAUUCUCUUAAAGGAAAUAAAUAUUCAAGAACUGAUUAUGUUCUAACAUGAUUAU | 0.589

Set 3
Target: Histone acetyltransferase KAT6A, winged helix 1, GST fusion (KAT6A, Homo sapiens, UniProt Q92794, residues 1-85)
Method: protein binding microarray
Molecule type: double-stranded DNA, one strand shown
Medium: in vitro
Concentration: not given
Notes: 8-mer, flanks averaged, mean of 2 arrays, mostly near background
Relative to: not given
Direction: higher = stronger binding
Target sequence (chain): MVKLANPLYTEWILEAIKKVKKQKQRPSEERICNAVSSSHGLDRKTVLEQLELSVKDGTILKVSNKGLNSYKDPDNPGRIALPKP
Sequence | E-score
AATGGAAT | -0.128
CCCATACG | 0.152
GGCCATGA | -0.0625
ATCTATTC | -0.136
ATGACGAG | 0.00102
ATCCGACC | 0.0881
AACGAAGT | -0.223
ACTCCAAT | -0.0861
ATTGTGCC | -0.052
CAAAGGGA | -0.158
CATGGGCC | -0.0667
CGCAACTA | 0.076
CAATCTTC | -0.192
CGCCAGCC | 0.23
CGGGTAGA | 0.142
CGTCAGAG | -0.0818
ACCCGATG | 0.261

Set 4
Target: Sal-like protein 4, full length isoform B (SALL4, Homo sapiens, UniProt Q9UJQ4-2, residues 1-616)
Method: universal PBM
Molecule type: double-stranded DNA, one strand shown
Medium: in vitro
Concentration: not given
Notes: 8-mer, flanks averaged, mean of replicates
Direction: higher = stronger binding
Target sequence (chain): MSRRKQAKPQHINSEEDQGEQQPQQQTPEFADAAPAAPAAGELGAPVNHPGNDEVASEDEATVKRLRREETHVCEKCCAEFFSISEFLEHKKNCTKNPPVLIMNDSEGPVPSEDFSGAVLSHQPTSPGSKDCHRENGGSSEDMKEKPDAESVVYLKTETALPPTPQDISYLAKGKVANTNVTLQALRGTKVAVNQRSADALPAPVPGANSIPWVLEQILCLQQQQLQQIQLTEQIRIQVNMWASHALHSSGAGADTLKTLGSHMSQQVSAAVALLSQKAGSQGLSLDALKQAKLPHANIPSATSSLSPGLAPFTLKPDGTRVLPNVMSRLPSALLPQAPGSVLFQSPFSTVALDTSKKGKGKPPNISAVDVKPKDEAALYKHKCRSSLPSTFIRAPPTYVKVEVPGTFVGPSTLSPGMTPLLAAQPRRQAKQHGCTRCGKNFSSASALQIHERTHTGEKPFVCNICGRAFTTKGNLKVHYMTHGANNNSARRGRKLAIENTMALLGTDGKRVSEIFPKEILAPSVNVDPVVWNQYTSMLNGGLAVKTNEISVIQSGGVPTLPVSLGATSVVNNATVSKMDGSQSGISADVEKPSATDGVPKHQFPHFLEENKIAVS
Sequence | E-score
CAACAAAC | -0.139
AGGACGAG | -0.164
ACAGAATC | -0.0641
AAGAGGAC | -0.105
AATTTAAG | 0.232
CGCAGTAC | -0.202
CCTGCTGA | -0.07
GGAGGGGA | -0.185
AGTGAATG | 0.119
AGAGCCAG | -0.299
CTGTCGCA | -0.116
GAGTAGAA | 0.0568
GTCTGCTA | 0.0129
CGCACTAG | -0.188
ACGCCCGT | -0.107
AGTTTGGA | 0.0997
ACTGGTTA | 0.14
TAATGCGA | 0.237
ACCACAAT | 0.0655
ACACTTGG | 0.0787

Set 5
Target: Ras GTPase-activating protein-binding protein 1, full length (G3BP1, Homo sapiens, UniProt Q13283)
Chain of UniProt Q13283 (whole entry, looked up): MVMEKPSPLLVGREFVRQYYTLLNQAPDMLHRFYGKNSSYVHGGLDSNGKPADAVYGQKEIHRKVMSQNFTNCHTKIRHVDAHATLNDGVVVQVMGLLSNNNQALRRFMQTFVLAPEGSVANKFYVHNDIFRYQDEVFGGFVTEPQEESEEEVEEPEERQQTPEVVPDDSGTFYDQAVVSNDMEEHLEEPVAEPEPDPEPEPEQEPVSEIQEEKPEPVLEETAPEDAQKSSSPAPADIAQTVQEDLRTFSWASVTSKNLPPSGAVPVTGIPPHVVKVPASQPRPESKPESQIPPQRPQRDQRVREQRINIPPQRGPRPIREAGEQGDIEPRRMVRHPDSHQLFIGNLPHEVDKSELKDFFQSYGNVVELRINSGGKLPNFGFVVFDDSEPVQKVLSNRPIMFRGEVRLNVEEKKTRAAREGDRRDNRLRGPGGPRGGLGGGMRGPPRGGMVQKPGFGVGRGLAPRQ
Method: RNA Bind-n-Seq
Molecule type: RNA
Medium: in vitro
Concentration: 200 nM
Notes: whole 134-nt RNA, ends assumed
Together with: 150 mM LiCl
Relative to: input library
Direction: higher = stronger binding
Library: 7-deaza-guanosine replaces G
Shared flanks, not repeated: GGGAGUUCUACAGUCCGACGAUC … UGGAAUUCUCGGGUGUCAAGG
Sequence | log2 enrichment
AUUUUUUGUAUCAAGUCCCUGAAUGGAAGUAUGACGUUGGGUCCCUCUGAAGUUUAAUUCUGAGUUCUCAUUAAAAGAAAUUUGCUUUCA | -1.9
GUCCUGUGCUACACAUCGUAUGUACCGAAUCGGGAAAAAGGGAAAAAGGAAAAAGGGGAAAGUAUUAUGUUACGCCGUUCGGAUCUGCAC | -0.0182
AAGUCCUGUGCUACACAUCGUAUGUACCGAAUCGGAAAGGUUUUUUUGGAAAAAGGAAAGUAUUAUGUUACGCCGUUCGGAUCUGCACUU | -1.63
GCAGGAAGUAAAAACAAAUGGAAAUGCUUCGGAUAGUGGCAGGGGUGGGGGUUGCUAAGGAAAAAGUGGGAUGGGAGUGGGUAAAGAGUU | 0.496
AAGUCCUGUGCUACACAUCGUAUGUACCGAAUCGGGUUUGGGUUUUUGGGUUUGGGAAAGUAUUAUGUUACGCCGUUCGGAUCUGCACUU | -0.756
UUUUCAAGGGGGCCCCAACUGGGGCCGCCUUGUAGCCUUCUUUGUCUUUGGGGCUGCACUGUGUGCUGAGAGUGUCAACAAGGAGAUGGA | -0.542
CCUCAAGUCCUGUGCUACACAUCGUAUGUACCGAAUCGGUGGUUUUUGGAGGAAAGUAUUAUGUUACGCCGUUCGGAUCUGCACUUCCAG | 0.636
AGUCCUGUGCUACACAUCGUAUGUACCGAAUCGGUUUUUGGGGUUUUUGGGUUUUUGGAAAGUAUUAUGUUACGCCGUUCGGAUCUGCAC | 0.188
UCCAAACCCAAGAAAAAGAAAUCUUUUUCCAAGGAGGAGUUGAUGAGUAGCGAUCUUGAAGAGACCGCUGGCAGCACCAGUAUUCCCAAG | -0.722
GCAGGAAGUAAAAACAAAUGGAAAUGCUUCGGAUAGAAACAGGGGUGGGGGUUGCUAAGGAAAGGGUGGGAUGGGAGUGGGUAAAGAGUU | 0.438
AAGUCCUGUGCUACACAUCGUAUGUACCGAAUCGGGGUUUUGGGUUUUGGGUUUUGGAAAGUAUUAUGUUACGCCGUUCGGAUCUGCACU | 0.151

Repeated from above (set 3):
Sequence | E-score
ATCCGACC | 0.0881
AACGAAGT | -0.223
ACTCCAAT | -0.0861
ATTGTGCC | -0.052
CAAAGGGA | -0.158
CATGGGCC | -0.0667
CGCAACTA | 0.076
CAATCTTC | -0.192
CGCCAGCC | 0.23
CGGGTAGA | 0.142
